Measurements from different studies.
Several values in a cell are separate wells, animals, samples, runs or records. ± marks the error that the study gave.
TDP1: Tyrosyl-DNA phosphodiesterase 1 (TDP1, Homo sapiens, UniProt Q9NUW8)
Chain of UniProt Q9NUW8 (whole entry, looked up): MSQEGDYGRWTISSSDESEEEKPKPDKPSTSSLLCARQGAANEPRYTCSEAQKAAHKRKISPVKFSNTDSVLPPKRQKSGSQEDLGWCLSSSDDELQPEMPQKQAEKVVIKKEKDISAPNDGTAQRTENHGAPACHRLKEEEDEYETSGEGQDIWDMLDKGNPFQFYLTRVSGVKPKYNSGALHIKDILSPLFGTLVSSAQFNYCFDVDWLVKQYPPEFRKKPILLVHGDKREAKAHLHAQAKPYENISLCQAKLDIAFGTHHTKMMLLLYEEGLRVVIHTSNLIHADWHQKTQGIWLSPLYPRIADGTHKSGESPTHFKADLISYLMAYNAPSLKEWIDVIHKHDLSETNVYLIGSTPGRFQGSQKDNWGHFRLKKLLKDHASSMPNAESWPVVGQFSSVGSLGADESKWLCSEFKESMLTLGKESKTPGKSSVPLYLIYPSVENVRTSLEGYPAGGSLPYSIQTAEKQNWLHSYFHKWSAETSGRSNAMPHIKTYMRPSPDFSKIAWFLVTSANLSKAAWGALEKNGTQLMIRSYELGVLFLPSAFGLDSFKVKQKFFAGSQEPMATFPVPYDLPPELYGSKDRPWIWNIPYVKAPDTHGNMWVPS
Uncharacterized protein: Uncharacterized protein (Trypanosoma brucei brucei, UniProt Q386Q8)
Gria1: Glutamate receptor 1 (Gria1, Rattus norvegicus, UniProt P19490)
Chain of UniProt P19490 (whole entry, looked up): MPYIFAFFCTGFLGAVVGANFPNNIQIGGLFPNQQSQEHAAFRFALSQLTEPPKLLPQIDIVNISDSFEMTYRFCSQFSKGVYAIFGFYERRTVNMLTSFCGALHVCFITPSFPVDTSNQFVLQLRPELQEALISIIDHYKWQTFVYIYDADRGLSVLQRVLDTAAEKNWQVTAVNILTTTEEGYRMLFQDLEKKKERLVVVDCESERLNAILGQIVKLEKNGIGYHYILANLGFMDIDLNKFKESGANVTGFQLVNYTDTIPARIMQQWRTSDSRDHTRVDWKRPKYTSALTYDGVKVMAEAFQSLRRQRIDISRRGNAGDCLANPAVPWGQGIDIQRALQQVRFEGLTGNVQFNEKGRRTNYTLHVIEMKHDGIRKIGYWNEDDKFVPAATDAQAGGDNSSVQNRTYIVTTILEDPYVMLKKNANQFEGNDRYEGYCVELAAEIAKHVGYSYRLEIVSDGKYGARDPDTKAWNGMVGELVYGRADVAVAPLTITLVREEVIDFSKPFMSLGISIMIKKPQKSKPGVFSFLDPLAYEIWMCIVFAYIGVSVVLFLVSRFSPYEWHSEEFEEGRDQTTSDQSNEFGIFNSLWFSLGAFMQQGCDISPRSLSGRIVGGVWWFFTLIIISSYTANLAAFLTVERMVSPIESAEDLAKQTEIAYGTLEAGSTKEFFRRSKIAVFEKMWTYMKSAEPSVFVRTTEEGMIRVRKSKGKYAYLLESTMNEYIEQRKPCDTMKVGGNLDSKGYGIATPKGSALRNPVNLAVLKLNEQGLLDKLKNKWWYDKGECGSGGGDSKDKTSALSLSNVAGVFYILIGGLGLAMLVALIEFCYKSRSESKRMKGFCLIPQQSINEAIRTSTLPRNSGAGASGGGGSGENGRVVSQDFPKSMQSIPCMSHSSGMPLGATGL
CASP6: Caspase-6 (CASP6, Homo sapiens, UniProt P55212)
Chain of UniProt P55212 (whole entry, looked up): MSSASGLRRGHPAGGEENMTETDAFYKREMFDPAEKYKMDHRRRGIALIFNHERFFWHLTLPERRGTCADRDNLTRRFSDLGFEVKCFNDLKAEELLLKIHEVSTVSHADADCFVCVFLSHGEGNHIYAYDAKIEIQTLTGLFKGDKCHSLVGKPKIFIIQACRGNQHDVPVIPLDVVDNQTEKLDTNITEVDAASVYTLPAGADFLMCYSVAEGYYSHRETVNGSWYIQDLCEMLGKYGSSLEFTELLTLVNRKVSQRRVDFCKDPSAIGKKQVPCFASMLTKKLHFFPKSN
glpG: Rhomboid protease GlpG (glpG, Escherichia coli, UniProt P09391)
Chain of UniProt P09391 (whole entry, looked up): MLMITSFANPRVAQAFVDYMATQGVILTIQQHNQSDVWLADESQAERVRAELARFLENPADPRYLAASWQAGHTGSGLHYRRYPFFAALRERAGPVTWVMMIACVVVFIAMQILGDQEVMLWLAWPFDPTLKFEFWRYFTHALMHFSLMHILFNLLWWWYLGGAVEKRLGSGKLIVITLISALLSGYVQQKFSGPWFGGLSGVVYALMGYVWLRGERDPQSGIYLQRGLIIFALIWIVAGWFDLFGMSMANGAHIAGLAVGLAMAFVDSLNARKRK
TARDBP aggregated: TAR DNA-binding protein 43, aggregated (TARDBP, Homo sapiens, UniProt Q13148)
Chain of UniProt Q13148 (whole entry, looked up): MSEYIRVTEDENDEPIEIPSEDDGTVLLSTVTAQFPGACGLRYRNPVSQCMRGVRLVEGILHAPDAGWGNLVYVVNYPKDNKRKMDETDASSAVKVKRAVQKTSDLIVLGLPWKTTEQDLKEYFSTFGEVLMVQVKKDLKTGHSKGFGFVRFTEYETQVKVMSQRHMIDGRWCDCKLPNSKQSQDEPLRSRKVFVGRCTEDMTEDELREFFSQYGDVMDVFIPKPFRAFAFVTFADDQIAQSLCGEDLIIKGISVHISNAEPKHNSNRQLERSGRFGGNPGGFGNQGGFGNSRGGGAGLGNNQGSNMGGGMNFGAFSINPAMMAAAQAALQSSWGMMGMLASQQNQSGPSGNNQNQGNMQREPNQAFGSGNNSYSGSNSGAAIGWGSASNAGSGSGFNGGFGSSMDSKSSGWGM
T1: RNase P RNA (Methanobrevibacter smithii); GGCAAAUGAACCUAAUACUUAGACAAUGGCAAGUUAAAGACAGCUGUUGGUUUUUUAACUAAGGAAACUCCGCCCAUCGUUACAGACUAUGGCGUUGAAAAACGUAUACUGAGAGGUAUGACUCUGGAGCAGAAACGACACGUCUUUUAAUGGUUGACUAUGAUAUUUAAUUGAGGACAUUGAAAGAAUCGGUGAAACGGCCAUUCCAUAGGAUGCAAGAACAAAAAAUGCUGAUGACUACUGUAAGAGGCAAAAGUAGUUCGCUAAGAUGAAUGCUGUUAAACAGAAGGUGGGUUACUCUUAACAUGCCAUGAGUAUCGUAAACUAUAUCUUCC
Chain of UniProt P08191 (whole entry, unmodified, looked up): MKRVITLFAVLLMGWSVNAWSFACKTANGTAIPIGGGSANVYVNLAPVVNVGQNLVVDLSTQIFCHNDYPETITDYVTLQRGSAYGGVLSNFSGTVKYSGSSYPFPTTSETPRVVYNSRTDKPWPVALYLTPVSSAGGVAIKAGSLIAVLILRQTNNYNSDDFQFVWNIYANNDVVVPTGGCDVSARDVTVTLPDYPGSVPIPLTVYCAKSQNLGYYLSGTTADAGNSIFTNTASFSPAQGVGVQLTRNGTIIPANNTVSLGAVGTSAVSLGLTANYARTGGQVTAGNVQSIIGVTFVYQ
Chain of UniProt P08912 (whole entry, looked up): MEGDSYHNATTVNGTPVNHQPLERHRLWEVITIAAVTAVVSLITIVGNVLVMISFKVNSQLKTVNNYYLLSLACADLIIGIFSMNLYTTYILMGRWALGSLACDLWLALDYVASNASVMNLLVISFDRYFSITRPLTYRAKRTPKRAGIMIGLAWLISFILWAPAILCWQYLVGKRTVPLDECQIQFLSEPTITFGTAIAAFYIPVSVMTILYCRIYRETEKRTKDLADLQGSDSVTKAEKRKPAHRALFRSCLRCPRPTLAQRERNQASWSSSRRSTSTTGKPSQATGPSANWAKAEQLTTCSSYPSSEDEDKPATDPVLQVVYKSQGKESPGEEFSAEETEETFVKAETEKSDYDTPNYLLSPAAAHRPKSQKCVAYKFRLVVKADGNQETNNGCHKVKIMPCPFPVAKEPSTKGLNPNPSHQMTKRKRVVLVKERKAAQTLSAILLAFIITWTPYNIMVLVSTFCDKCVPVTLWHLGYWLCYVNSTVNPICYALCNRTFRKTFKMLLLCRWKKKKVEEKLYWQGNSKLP
Chain of UniProt Q9HB29 (whole entry, looked up): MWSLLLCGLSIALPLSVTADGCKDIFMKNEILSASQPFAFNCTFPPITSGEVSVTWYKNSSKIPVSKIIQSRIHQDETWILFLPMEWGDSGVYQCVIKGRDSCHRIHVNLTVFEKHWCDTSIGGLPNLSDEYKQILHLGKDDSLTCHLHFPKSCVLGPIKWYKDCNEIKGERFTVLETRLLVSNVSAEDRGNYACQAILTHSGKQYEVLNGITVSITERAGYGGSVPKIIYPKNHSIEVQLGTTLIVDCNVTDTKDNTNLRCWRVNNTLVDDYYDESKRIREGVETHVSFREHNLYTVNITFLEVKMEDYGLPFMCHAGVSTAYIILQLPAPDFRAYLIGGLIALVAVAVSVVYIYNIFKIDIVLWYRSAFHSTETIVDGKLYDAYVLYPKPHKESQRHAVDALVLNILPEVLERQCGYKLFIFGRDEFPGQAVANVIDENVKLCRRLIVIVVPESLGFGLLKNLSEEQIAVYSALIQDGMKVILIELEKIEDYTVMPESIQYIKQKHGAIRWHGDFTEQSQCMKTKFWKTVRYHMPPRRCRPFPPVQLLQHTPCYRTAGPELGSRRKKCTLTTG
Chain of UniProt P27338 (whole entry, looked up): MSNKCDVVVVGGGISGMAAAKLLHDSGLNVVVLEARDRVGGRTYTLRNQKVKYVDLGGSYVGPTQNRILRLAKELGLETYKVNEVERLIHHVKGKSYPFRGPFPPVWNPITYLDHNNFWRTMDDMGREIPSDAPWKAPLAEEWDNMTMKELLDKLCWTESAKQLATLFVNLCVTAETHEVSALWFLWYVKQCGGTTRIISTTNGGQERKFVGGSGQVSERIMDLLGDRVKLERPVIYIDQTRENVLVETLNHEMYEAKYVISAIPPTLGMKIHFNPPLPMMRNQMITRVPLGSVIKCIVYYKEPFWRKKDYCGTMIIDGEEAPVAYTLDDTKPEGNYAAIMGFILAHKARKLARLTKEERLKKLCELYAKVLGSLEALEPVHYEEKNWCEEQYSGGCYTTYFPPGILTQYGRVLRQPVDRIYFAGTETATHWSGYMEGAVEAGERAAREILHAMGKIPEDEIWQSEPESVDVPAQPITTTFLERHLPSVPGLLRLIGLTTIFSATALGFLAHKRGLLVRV
Chain of UniProt P07550 (whole entry, looked up): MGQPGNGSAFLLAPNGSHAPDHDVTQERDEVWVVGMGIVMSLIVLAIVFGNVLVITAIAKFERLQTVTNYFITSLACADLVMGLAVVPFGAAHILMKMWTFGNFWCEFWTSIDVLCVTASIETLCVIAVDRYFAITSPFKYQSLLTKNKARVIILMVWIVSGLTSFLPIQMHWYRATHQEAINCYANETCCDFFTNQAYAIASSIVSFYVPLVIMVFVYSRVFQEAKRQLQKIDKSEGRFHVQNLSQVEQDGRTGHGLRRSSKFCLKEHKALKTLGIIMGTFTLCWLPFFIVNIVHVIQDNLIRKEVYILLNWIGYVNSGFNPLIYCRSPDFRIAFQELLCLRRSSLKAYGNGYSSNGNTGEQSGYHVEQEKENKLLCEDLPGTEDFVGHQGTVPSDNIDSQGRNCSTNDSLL

Brc1cccc(Nc2nc(NC3CCCCC3)c3ccccc3n2)c1 — bias factor (Beta-2 adrenergic receptor (ADRB2, Homo sapiens, UniProt P07550); β-arrestin2 recruitment, PathHunter and GloSensor; relative to: GloSensor IC50 over PathHunter IC50): > 20 fold
CCCCCCCCCCCCC/C=C/C=O — isoTOP-ABPP competition ratio (Treacle protein (Homo sapiens, UniProt Q13428); competitive isoTOP-ABPP, measured: TCOF1 cysteine peptide; Ramos soluble proteome; 100 µM, together with: iodoacetamide probe; relative to: DMSO over compound-treated, higher = stronger cysteine blockade): 1
CC[C@H](C)[C@@H]1NC(=O)[C@H](Cc2c[nH]c3ccccc23)NC(=O)[C@H](C)NC(=O)[C@H](Cc2ccc(O)cc2)NC(=O)CNC(=O)[C@H](Cc2ccccc2)N(C)C(=O)[C@H](C)N(C)C(=O)[C@H](Cc2ccc(O)cc2)NC(=O)[C@H](C(C)C)NC(=O)[C@H](CC(C)C)NC(=O)[C@H](Cc2ccccc2)NC(=O)CSC[C@@H](C(=O)NCC(N)=O)NC1=O — ΔTm (Bromodomain-containing protein 4, BD1 (BRD4, Homo sapiens, UniProt O60885); thermal stability, DSF; 200 µM): 0.78 °C
N#Cc1cc(C=NOCc2ccc(-c3nc4cc(-c5ccccc5)ccn4c3Nc3ccc(C(=O)O)cc3)cc2)ccc1F — inhibition (TDP1; enzyme activity, inhibitor; 100 µM, unpurified compound): 39.4%
O=C(Cc1ccc(OCc2ccccc2)cc1)NC1(C(=O)O)CCN(C(=O)c2ccc(-c3cccc(Cl)c3)cc2)CC1 — activity vs control (Testis-specific serine/threonine-protein kinase 4 (TSSK4, Homo sapiens, UniProt Q6SA08); enzyme activity, inhibitor; 10 µM): 102%
CCCCCCCC/C=C\CCCCCCCC(=O)NCCO — maximal open probability (Transient receptor potential cation channel subfamily V member 1 (Trpv1, Mus musculus, UniProt Q704Y3, S511A); ion current, agonist, whole-cell patch clamp; S511A; relative to: 3 mM 2-APB): 0.74 ± 0.13
CCC1C(c2ccccc2)NC(c2ccccc2)CC1(O)c1ccccc1OC (racemic) — Ki (T1, RNase P RNA (Methanobrevibacter smithii); progress curve cleavage assay; together with: pre-tRNA): 206 µM
c1csc(C2=Nn3c(nnc3C3CCCCC3)SC2)c1 — Hill slope (Uncharacterized protein; inhibitor, coupled colorimetric; Trypanosoma brucei): 1.21
CCCCCC(O)/C=C/C=O (stereo not shown) — isoTOP-ABPP competition ratio (Perilipin-3 (PLIN3, Homo sapiens, UniProt O60664); competitive isoTOP-ABPP; proteome, soluble, MDA-MB-231; 100 µM, 60 min, together with: iodoacetamide probe; relative to: DMSO over compound-treated, higher = stronger cysteine blockade): 2.6
O=C(O)Cc1cc2c(cc1C(=O)c1ccccc1)OCO2 — desensitization time constant (Gria1; glutamate-evoked current, whole-cell patch clamp; HEK-293T; concentration not given, weighted tau, 500 ms pulse, together with: glutamate): 2.2 ± 0.1 ms
Cc1nn(C)c2nc(Cl)c(C=NOCc3ccc4nc(-c5ccccc5)c(Nc5ccc(C(=O)O)cc5)n4c3)cc12 — inhibition (TDP1; enzyme activity, inhibitor; 100 µM, unpurified compound): 22.5%
CC(=O)N[C@@H](Cc1c[nH]c2ccccc12)C(=O)N[C@@H](CCCCN)C(=O)N[C@@H](CCC(=O)O)C(=O)N[C@@H](CC(=O)O)C(=O)COC(=O)c1c(C)cccc1C — kinact/KI (CASP6; enzyme activity, inhibitor): 1900 M⁻¹ s⁻¹
Cc1cc(C=NOCc2ccc(-c3nc4cc(-c5ccccc5)ccn4c3Nc3ccc(C(=O)O)cc3)cc2)sc1C (mixture of isomers) — inhibition (TDP1; enzyme activity, inhibitor; 100 µM, unpurified compound): 61.8%
CN(Cc1cc(C2CC2)on1)C(=O)c1cccc(-c2ccc3c(c2)CCO3)c1 — reaction rate (ACS1 (Saccharomyces cerevisiae, UniProt Q01574); enzyme activity, inhibitor, coupled pyrophosphate; 200 nM; higher is more activity): 0.0199 a.u.
COC(=O)Cc1cc2c(cc1C(=O)c1ccccc1I)OCO2 — deactivation time constant (Gria1; glutamate-evoked current, whole-cell patch clamp; HEK-293T; concentration not given, weighted tau, 1 ms pulse, together with: glutamate): 2.4 ± 0.1 ms
Clc1ccc(C2=Nn3c(nnc3C3CCCCC3)SC2)cc1 — Hill slope (Uncharacterized protein; inhibitor, coupled colorimetric; Trypanosoma brucei): 1.86
CCCCCC=CC=C1C(=O)C=CC1CC=CCCCC(=O)O (stereo not shown) — isoTOP-ABPP competition ratio (Heterogeneous nuclear ribonucleoprotein F (Homo sapiens, UniProt P52597); competitive isoTOP-ABPP, measured: HNRPF cysteine peptide; Ramos soluble proteome; 100 µM, together with: iodoacetamide probe; relative to: DMSO over compound-treated, higher = stronger cysteine blockade): 2.4
N=C(N)NCCS(=O)(=O)O — fraction bound (Sodium- and chloride-dependent taurine transporter (SLC6A6, Homo sapiens, UniProt P31641, Y138A); binding, microscale thermophoresis; 46 nM, fitted curve; higher = more binding): 0
CCCCCCCO[C@H]1O[C@H](CO)[C@@H](O)[C@H](O)[C@@H]1O — ΔG (Type 1 fimbrin D-mannose specific adhesin, lectin domain (fimH, Escherichia coli K-12, UniProt P08191); binding, isothermal titration calorimetry; 15 °C, individual direct titrations): -10.2 kcal/mol and -10.1 kcal/mol
CN(C)c1ccnc(-n2cccc2C=NOCc2ccc3nc(-c4ccccc4)c(Nc4ccc(C(=O)O)cc4)n3c2)c1C#N (mixture of isomers) — inhibition (TDP1; enzyme activity, inhibitor; 100 µM, unpurified compound): -0.5%
CCO — association constant (Lysozyme C (LYZ, Gallus gallus, UniProt P00698); binding, static light scattering; pH 7, 25 °C, together with: NaCl 50 mM): 2.1 M⁻¹
COc1ccc(OC)c(C2=Nn3c(nnc3-c3ccccc3)SC2)c1 — Hill slope (Uncharacterized protein; inhibitor, coupled colorimetric; Trypanosoma brucei): 0.64
CCCCCCOc1ccc(C(=O)OCC[N+]2(C)CC=CCC2)cc1 (stereo not shown) — basal binding (Muscarinic acetylcholine receptor M3 (CHRM3, Homo sapiens, UniProt P20309); membranes; 1 µM, 15 h, no carbachol; relative to: control): 0.97 ± 0.03 fold
CC[C@@H](C)[C@H](NC(=O)[C@H](Cc1ccc(O)cc1)NC(=O)[C@@H]1C[C@@H](O)CN1C(=O)[C@H](C)NC(=O)[C@H](CC(C)C)NC(=O)[C@H](C)NC(=O)[C@H](CCC(=O)O)NC(=O)[C@H](CC(=O)O)NC(=O)c1ccc2c(c1)C1(OC2=O)c2ccc(O)cc2Oc2cc(O)ccc21)C(=O)N1CCC[C@H]1C(=O)N[C@@H](CC(=O)O)C(=O)O — koff (elongin C (Spodoptera frugiperda, UniProt A0A2H1WSX9); surface plasmon resonance; binary complex): 0.0034 s⁻¹
Cc1ccc(S(=O)(=O)N2CC(NC(=O)Cc3ccccc3)C2=O)cc1 (stereo not shown) — IC50 (glpG; enzyme activity, inhibitor, gel-based chimeric protein substrate): inactive
O=C1c2sc(-c3ccc(N4CCC(F)C4)nc3F)nc2CCN1c1cccnc1 (stereo not shown) — specific binding (TARDBP aggregated; radioligand binding; control brain sarkosyl-insoluble extract; 6.91 nM): -2 pM
CC(C)c1ccc(/C=C/C(=O)c2ccc(Br)s2)cc1 — selectivity ratio (Amine oxidase [flavin-containing] B (MAOB, Homo sapiens, UniProt P27338); enzyme activity, inhibitor; together with: benzylamine; relative to: IC50 MAO-A over IC50 MAO-B): 4.19
CC(=O)N[C@@H](CC(C)C)C(=O)N[C@@H](CCC(=O)O)C(=O)N[C@@H](CCC1CCCCC1)C(=O)N[C@@H](CC(=O)O)C(=O)COC(=O)c1c(C)cccc1C — kinact/KI (CASP6; enzyme activity, inhibitor): 493000 M⁻¹ s⁻¹
Cc1ccc(S(=O)(=O)N2CC(NC(=O)c3ccc(C#N)cc3)C2=O)cc1 (stereo not shown) — IC50 (glpG; enzyme activity, inhibitor, gel-based chimeric protein substrate): inactive
O=C(O)c1ccc(Nc2c(-c3ccc(CON=Cc4cnc5ccccc5c4)cc3)nc3cc(-c4ccccc4)ccn23)cc1 (mixture of isomers) — inhibition (TDP1; enzyme activity, inhibitor; 100 µM, unpurified compound): 76.5%
O=C1c2sc(-c3ccc(N4CCC(CO)CC4)nc3F)nc2CCN1c1cccnc1 — specific binding (TARDBP aggregated; autoradiography; human, sections, FTLD-TDP, type C; 10 nM; higher = more binding): 0.82 a.u. and 0.87 a.u. and 1.14 a.u. and 0.92 a.u.
CC(=O)N[C@@H](CCC(C)C)C(=O)N[C@H](C(=O)N[C@@H](CO)C(=O)N[C@@H](CC(=O)O)C(=O)COC(=O)c1c(C)cccc1C)C(C)(C)C — kinact/KI (CASP6; enzyme activity, inhibitor): 400 M⁻¹ s⁻¹
CN1CCC[C@@H]1C(=O)N[C@@H](Cc1ccc(-c2ccccc2)cc1)B(O)O — kobs/[I] (Proteasome component C5/PSMB5 (Homo sapiens, UniProt P20618+P28074); enzyme activity, inhibitor, progress curve; human constitutive β5c): 8300 M⁻¹ s⁻¹
O=C(O)Cc1cc2c(cc1C(=O)c1cccc(Br)c1)OCO2 — desensitization time constant (Gria1; whole-cell patch clamp; HEK-293T; concentration not given, together with: glutamate): 1.2 ± 0.1 ms
O=C(O)c1ccc(Nc2c(-c3ccccc3)nc3ccc(CON=Cc4ccc(OCc5ccc6nsnc6c5)cc4)cn23)cc1 — inhibition (TDP1; enzyme activity, inhibitor; 100 µM, unpurified compound): 98.2%
CC(=O)C12NC(C)(C)CC1(C)C(=O)C1=C2c2c(c3c4n2C(C)(C)CC2=C4C4(CC(C)(C)NC(C)(C4)C2=O)CC3(C)C)C(=O)C(C)(C)N1 (single isomer, unassigned; (-)) — activation (Kappa-type opioid receptor (OPRK1, Homo sapiens, UniProt P41145); cAMP level, agonist, LANCE Ultra cAMP; CHO; 50 µM): 5.65%
CCCCCCOc1ccc(C(=O)OCCN2CC=CCC2)cc1 — basal binding (Muscarinic acetylcholine receptor M5 (CHRM5, Homo sapiens, UniProt P08912); membranes; 10 µM, 15 h, no carbachol; relative to: control): 1.14 ± 0.04 fold
O=[N+]([O-])c1cc(Br)cc([N+](=O)[O-])c1NS(=O)(=O)c1ccc(Br)cc1 — lowest inhibitory concentration (HAB1 (Arabidopsis thaliana, UniProt Q9CAJ0); phosphatase activity, inhibitor; without PYL receptor): > 200 µM
Cc1cc(C=NOCc2ccc(-c3nc4cc(-c5ccccc5)ccn4c3Nc3ccc(C(=O)O)cc3)cc2)c(C)n1C1CCCC1 (mixture of isomers) — inhibition (TDP1; enzyme activity, inhibitor; 100 µM, unpurified compound): 42.7%
CC(C)[C@@H]1NC(=O)[C@H](Cc2ccccc2)NC(=O)CSC[C@@H](C(N)=O)NC(=O)[C@H](CCC(=O)O)NC(=O)[C@H](CO)NC(=O)[C@H](Cc2c[nH]c3cccc(Cl)c23)NC(=O)[C@H](C2CCCCC2)NC(=O)[C@H](C(C)C)NC(=O)[C@H](Cc2ccc(O)cc2)NC(=O)[C@H](CC(=O)O)NC(=O)[C@H](Cc2c[nH]c3ccccc23)NC(=O)[C@H](Cc2ccc(N)nc2)NC(=O)[C@H](Cc2c[nH]c3ccc(Cl)cc23)NC(=O)[C@H](CCC(=O)O)NC1=O — remaining activity (Interleukin-1 receptor-like 2 (IL1RL2, Homo sapiens, UniProt Q9HB29); reporter gene (SEAP), inhibitor, HEK-Blue IL-36R reporter; HEK-Blue IL-36R cells; 0.41 µM, 6 h, together with: IL-36γ 0.3 ng/mL): 38.3%
CC(=O)N1C[C@H](O)C[C@H]1C(=O)N[C@@H](CC(C)C)C(=O)N[C@@H](C)C(=O)N[C@@H](CC(=O)O)C(=O)COC(=O)c1c(C)cccc1C — kinact/KI (CASP6; enzyme activity, inhibitor): 600 M⁻¹ s⁻¹
O=C(O)c1ccc(Nc2c(-c3ccc(CON=Cc4ccc(-n5cncn5)c(F)c4)cc3)nc3cc(-c4ccccc4)ccn23)cc1 (mixture of isomers) — inhibition (TDP1; enzyme activity, inhibitor; 100 µM, unpurified compound): 82.4%
CCCCCCCCCCCCCCCC(=O)OCC(CSC[C@H](N)C(=O)N[C@@H](CO)C(=O)N[C@@H](CCCCN)C(=O)N[C@@H](CCCCN)C(=O)N[C@@H](CCCCN)C(=O)N[C@@H](CCCCN)C(=O)NCCCCCC(=O)N[C@@H](CCCCN)C(=O)N[C@@H](CC(C)C)C(=O)N[C@H](C(=O)N[C@@H](Cc1ccccc1)C(=O)N[C@@H](Cc1ccccc1)C(=O)N[C@@H](Cc1ccc2ccccc2c1)C(=O)O)C(C)C)OC(=O)CCCCCCCCCCCCCCC (stereo partly shown) — fibril diameter (Amyloid-beta precursor protein, fibrillar amyloid-beta (APP, Homo sapiens, UniProt P05067); TEM; 2.0 eq, 5 h, fibril 5, together with: APP 20 µM): 55.8 nm
